Results from different studies.
Each line is one published result; not all experiments were run side by side. Numbers after ± are the reported error.
Kir3.1/Kir3.4: Kir3.1/Kir3.4 (Homo sapiens, UniProt P48544+P48549)
UniProt P48544, sequence (whole entry, looked up): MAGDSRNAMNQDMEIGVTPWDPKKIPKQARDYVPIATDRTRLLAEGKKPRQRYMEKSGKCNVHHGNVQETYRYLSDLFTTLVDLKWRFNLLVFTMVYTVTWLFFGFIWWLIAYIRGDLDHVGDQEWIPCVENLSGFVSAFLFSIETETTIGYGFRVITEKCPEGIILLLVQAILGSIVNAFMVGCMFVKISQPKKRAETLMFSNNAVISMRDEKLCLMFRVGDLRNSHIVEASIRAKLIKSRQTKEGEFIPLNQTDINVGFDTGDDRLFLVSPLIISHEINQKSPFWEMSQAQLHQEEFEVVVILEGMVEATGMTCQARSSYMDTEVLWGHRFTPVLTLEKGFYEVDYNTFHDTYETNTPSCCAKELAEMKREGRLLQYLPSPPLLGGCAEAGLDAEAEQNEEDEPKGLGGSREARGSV
UniProt P48549, sequence (whole entry, looked up): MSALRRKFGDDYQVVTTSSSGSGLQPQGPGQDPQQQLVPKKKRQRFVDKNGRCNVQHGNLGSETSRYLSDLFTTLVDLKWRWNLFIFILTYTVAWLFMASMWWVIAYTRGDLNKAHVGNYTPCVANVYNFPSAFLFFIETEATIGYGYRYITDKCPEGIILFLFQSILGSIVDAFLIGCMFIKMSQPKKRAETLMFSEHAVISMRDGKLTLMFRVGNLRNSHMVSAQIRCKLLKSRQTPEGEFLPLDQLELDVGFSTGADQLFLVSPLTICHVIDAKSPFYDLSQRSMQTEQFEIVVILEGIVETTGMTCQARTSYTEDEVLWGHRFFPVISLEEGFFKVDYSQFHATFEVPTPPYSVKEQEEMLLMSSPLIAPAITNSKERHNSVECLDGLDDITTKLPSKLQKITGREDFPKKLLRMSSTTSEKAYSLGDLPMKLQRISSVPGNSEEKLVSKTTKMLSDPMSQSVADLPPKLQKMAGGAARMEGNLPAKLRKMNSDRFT
CNR1: Cannabinoid receptor 1 (CNR1, Homo sapiens, UniProt P21554)
UniProt P21554, sequence (whole entry, looked up): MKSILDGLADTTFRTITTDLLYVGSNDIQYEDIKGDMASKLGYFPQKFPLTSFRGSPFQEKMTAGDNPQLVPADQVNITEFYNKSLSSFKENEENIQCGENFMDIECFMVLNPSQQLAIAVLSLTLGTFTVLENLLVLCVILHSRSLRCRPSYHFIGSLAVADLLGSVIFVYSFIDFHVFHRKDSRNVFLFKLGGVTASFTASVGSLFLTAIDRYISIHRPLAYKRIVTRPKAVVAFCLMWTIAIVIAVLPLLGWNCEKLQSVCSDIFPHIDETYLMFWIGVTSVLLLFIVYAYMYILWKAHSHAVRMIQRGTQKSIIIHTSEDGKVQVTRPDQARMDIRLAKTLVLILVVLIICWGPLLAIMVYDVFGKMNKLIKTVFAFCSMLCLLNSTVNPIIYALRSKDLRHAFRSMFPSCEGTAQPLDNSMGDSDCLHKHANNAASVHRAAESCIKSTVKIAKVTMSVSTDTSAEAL
UniProt Q969F8, sequence (whole entry, unmodified, looked up): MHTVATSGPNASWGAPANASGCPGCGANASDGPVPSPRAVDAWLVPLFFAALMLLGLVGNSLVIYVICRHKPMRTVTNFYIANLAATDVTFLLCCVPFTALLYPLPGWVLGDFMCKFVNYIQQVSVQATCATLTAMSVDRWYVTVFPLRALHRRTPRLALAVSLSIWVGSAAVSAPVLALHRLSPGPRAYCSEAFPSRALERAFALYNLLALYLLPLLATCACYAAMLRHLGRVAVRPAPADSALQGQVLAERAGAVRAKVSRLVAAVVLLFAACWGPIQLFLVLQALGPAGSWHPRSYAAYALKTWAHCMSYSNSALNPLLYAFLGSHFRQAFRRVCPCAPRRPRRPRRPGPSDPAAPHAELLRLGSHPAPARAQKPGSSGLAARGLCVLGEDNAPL
UniProt Q9NSD7, sequence (whole entry, unmodified, looked up): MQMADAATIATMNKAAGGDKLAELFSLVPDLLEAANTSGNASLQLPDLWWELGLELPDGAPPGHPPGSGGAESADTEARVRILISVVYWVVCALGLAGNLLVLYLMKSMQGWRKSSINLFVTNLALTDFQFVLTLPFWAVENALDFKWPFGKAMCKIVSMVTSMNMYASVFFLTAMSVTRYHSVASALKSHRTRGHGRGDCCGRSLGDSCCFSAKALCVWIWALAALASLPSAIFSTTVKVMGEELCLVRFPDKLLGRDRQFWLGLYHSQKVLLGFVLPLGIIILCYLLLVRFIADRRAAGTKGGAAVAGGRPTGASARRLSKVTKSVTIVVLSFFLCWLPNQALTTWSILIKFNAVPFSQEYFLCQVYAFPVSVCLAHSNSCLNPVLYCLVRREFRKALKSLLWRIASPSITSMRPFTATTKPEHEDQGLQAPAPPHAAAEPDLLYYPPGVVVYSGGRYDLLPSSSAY
UniProt Q8TDS7, sequence (whole entry, unmodified, looked up): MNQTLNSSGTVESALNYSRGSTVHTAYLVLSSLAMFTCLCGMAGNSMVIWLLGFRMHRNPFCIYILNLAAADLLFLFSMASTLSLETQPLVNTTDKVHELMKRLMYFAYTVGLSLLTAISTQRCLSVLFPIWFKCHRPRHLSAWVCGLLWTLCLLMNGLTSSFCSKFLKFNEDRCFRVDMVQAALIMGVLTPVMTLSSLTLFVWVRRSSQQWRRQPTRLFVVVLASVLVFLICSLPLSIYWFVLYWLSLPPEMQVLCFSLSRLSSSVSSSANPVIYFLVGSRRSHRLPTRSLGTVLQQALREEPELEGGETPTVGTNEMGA

Cc1ncsc1-c1ccc(C(C)NC(=O)C2CC(O)CN2C(=O)C(NC(=O)CCCCCCCCCCN2CCCC(Nc3ncc(Cl)c(Nc4ccccc4S(=O)(=O)C(C)C)n3)C2)C(C)(C)C)cc1 (stereo not shown): “log2 fold change” -1.02 (22Rv1; RNA-seq, item: USP40 mRNA; concentration not given; baseline: DMSO).
COC1CN([C@H]2CC[C@H]([C@@]3(C)Oc4c(Cl)cc(C(=O)NCc5c(SC)cc(C)[nH]c5=O)c(C)c4O3)CC2)C1: “log2 fold change” 0.555 (RNA-seq, item: ZBTB46 mouse homolog; mouse, HT-1376 xenograft, whole blood; dose not given; baseline: vehicle).
CNC(=N)NCCC[C@H](NC(=O)[C@H](CC(C)C)NC(=O)NNC(=O)[C@H](Cc1ccccc1)NC(=O)[C@@H](NC(=O)[C@H](CC(N)=O)NC(=O)[C@@H]1C[C@@H](O)CN1C(=O)[C@@H](Cc1ccc(O)cc1)NC(C)=O)[C@@H](C)O)C(=O)N[C@@H](Cc1c[nH]c2ccccc12)C(N)=O has an Emax of 73.6% (KiSS-1 receptor (KISS1R, Homo sapiens, UniProt Q969F8, T155A); inositol phosphate, agonist; HEK293).
COc1cc(C2C(NC(=O)c3ccc(NC(=O)OC(C)(C)C)cc3)(C(=O)O)C(c3ccc(OC(=O)c4cccs4)c(OC)c3)C2(NC(=O)c2ccc(NC(=O)OC(C)(C)C)cc2)C(=O)O)ccc1OC(=O)c1cccs1 (stereo not shown) has an Emax of 14.6 ± 1.82% (GLP1R (Homo sapiens, UniProt P43220, K197A); cAMP accumulation, agonist; receptor mutant; baseline: wild type).
For O=C(COc1ccc(C(F)(F)F)cc1C(F)(F)F)Nc1cc(C2CCC2)nn1CC(F)(F)F, the Emax was under 10% (Kir3.1/Kir3.4; thallium flux, activator; HEK293; baseline: standard compound).
CCOC(=O)C(CC)(CCCSCCOCCOCCN)NC(=O)c1ccc(C2CC2)c(Cc2ccc(F)cc2)n1 (racemic) gave an Emax of 96% (CNR1; cAMP, agonist).
The Emax of Cc1cc(NC(=O)COc2ccc(Cl)cc2Cl)n(CC(F)(F)F)n1 is reported as 75% (Kir3.1/Kir3.4; thallium flux, activator; HEK293; baseline: standard compound).
The Emax of COc1ccc(C2(C(=O)N3CCC(Nc4nc5ccccc5c(=O)[nH]4)CC3)CC2)cc1 is reported as 68 ± 9.11% (MRGPRD (Homo sapiens, UniProt Q8TDS7, Q182A); miniGq recruitment, agonist, BRET; HEK293T; Q182A mutant; baseline: wild type).
With CCOC(=O)C(CC)(CCCSCCOCCOCCOCCNc1ccc([N+](=O)[O-])c2nonc12)NC(=O)c1ccc(C2CC2)c(Cc2ccc(F)cc2)n1 (stereo not shown) the Emax was 96% (CNR1; cAMP, agonist).
The Emax of O=C(COc1cc(Cl)ccc1Cl)Nc1cc(C2CC2)nn1C1CCOCC1 is reported as 68% (Kir3.1/Kir3.4; thallium flux, activator; HEK293; baseline: standard compound).
With CNS(=O)(=O)Nc1nccc(Cc2c(C)c3ccc(Oc4ncccc4F)cc3oc2=O)c1F the IC50 was 762 nM (NCI-H1355; cell viability; 7 days).
Under “log2 fold change”, CN1CCCNC(=O)c2cccc(c2)C(=O)NCCCN(C)CCCNc2cccc3c2C(=O)c2cccc(c2C3=O)NCCC1 is recorded as 0.862 (SAS; RNA-Seq, item: PEX1 mRNA; 1 µM, 6 h; baseline: untreated cells).
For CC[C@H](C)[C@@H]1NC(=O)[C@H](Cc2ccccc2)NC(=O)[C@H](CCC(=O)O)NC(=O)[C@H](CCCNC(=N)N)NC(=O)CNC(=O)[C@@H](NC(=O)[C@H](CC(C)C)NC(=O)[C@H](CCCNC(=N)N)NC(=O)[C@@H](NC(=O)CNC(=O)[C@H](Cc2ccc(O)cc2)NC(=O)[C@@H]2CCCN2C(=O)[C@H](C)NC(=O)[C@H](C)NC(=O)[C@@H](N)CCCNC(=N)N)C(C)C)CSSC[C@@H]2NC(=O)[C@@H](NC(=O)[C@H](CO)NC(=O)[C@H](CO)NC(=O)[C@H](CO)NC(=O)[C@H](CC(C)C)NC(=O)CNC(=O)[C@H](C)NC(=O)[C@H](CC(C)C)NC(=O)[C@@H](NC(=O)[C@@H](N)CC(=O)O)C(C)C)CSSC[C@H](NC(=O)CNC(=O)[C@H](Cc3c[nH]c4ccccc34)NC(=O)[C@H](CCCCN)NC2=O)C(=O)N[C@@H](CO)C(=O)N[C@@H](CCCCN)C(=O)N[C@@H](CO)C(=O)N[C@@H](CCC(=O)O)C(=O)N[C@@H]([C@@H](C)CC)C(=O)N[C@@H](CO)C(=O)N[C@@H](CO)C(=O)N[C@@H](CC(C)C)C(=O)N[C@H](C(=O)O)CSSC[C@@H](C(=O)NCC(=O)NCC(=O)N[C@@H](CO)C(=O)N[C@@H](CCCNC(=N)N)C(=O)N[C@@H](Cc2c[nH]c3ccccc23)C(=O)O)NC(=O)[C@H]([C@@H](C)O)NC(=O)[C@H](Cc2ccccc2)NC(=O)[C@H]([C@@H](C)CC)NC(=O)[C@H](C(C)C)NC(=O)[C@H](C)NC(=O)[C@H](CCCNC(=N)N)NC1=O, the Emax was 49.9 ± 5.85% (RXFP3 (Homo sapiens, UniProt Q9NSD7, S163A); HEK-293T; baseline: wild type).

Excerpt of the above:
For O=C(COc1ccc(C(F)(F)F)cc1C(F)(F)F)Nc1cc(C2CCC2)nn1CC(F)(F)F, the Emax was under 10% (Kir3.1/Kir3.4; thallium flux, activator; HEK293; baseline: standard compound).
